Measurements of several laboratories.
Each line is one published result; not all experiments were run side by side. Numbers after ± are the reported error. In brackets after ≈: the same amount, converted by molar mass.

For `CC(C)C1=C[C@@]23CC[C@@H]4[C@](C)(CCC[C@@]4(C)C(=O)NCC#CCN4CCCNCC4)[C@H]2C[C@@H]1[C@H]1C(=O)OC(=O)[C@H]13`, the selectivity index was 2.01 (Influenza A virus; MDCK, A/Puerto Rico/8/34 (H1N1); reference: CC50 over IC50).
`c1cc2c(s1)CCOC21CCN(Cc2ccc3c(c2)OCCO3)CC1` gave an MIC of 64 µM (≈ 22.9 µg/mL) (Haemophilus influenzae; broth microdilution; H128 AcrA-).
The FIC index of `CC[C@H](C)[C@H](NC(=O)[C@H](CCCNC(=N)N)NC(=O)[C@H](CCCCN)NC(=O)[C@H](CC(C)C)NC(=O)[C@H](CC(C)C)NC(=O)CN)C(=O)N[C@@H](CCCCN)C(=O)N[C@H](C(=O)N[C@@H](CC(C)C)C(=O)N[C@@H](CC(C)C)C(=O)NCCCC[C@H](NC(=O)[C@H](CC(C)C)NC(=O)[C@H](CC(C)C)NC(=O)[C@@H](NC(=O)[C@H](CCCCN)NC(=O)[C@@H](NC(=O)[C@H](CCCNC(=N)N)NC(=O)[C@H](CCCCN)NC(=O)[C@H](CC(C)C)NC(=O)[C@H](CC(C)C)NC(=O)CN)[C@@H](C)CC)[C@@H](C)O)C(=O)NCCCC[C@H](NC(=O)[C@H](CCCCNC(=O)[C@H](CC(C)C)NC(=O)[C@H](CC(C)C)NC(=O)[C@@H](NC(=O)[C@H](CCCCN)NC(=O)[C@@H](NC(=O)[C@H](CCCNC(=N)N)NC(=O)[C@H](CCCCN)NC(=O)[C@H](CC(C)C)NC(=O)[C@H](CC(C)C)NC(=O)CN)[C@@H](C)CC)[C@@H](C)O)NC(=O)[C@H](CC(C)C)NC(=O)[C@H](CC(C)C)NC(=O)[C@@H](NC(=O)[C@H](CCCCN)NC(=O)[C@@H](NC(=O)[C@H](CCCNC(=N)N)NC(=O)[C@H](CCCCN)NC(=O)[C@H](CC(C)C)NC(=O)[C@H](CC(C)C)NC(=O)CN)[C@@H](C)CC)[C@@H](C)O)C(N)=O)[C@@H](C)O` is reported as 0.25 (Klebsiella pneumoniae; checkerboard; ATCC 700603; together with: rifampicin).
The IC50 of `CC[C@H](C)[C@H](NC(=O)[C@H](C)NC(=O)[C@H](CCC(=O)O)NC(=O)[C@H](CCC(=O)O)NC(=O)[C@H](CC(C)C)NC(=O)[C@H](CCCCN)NC(=O)[C@H](CCCCN)NC(=O)[C@H](CCSC)NC(=O)[C@H](CCC(=O)O)NC(=O)[C@H](Cc1ccc(O)cc1)NC(=O)[C@H](CCC(=O)O)NC(=O)[C@H](CC(C)C)NC(=O)[C@H](CC(=O)O)NC(=O)[C@H](CC(C)C)NC(=O)[C@H](Cc1ccccc1)NC(=O)[C@@H](NC(=O)[C@@H](NC(=O)[C@@H](N)CC(N)=O)C(C)C)[C@@H](C)O)C(=O)N[C@@H](CCCCN)C(=O)N[C@@H](CCCCN)C(=O)N[C@@H](CC(C)C)C(=O)N[C@@H](CCC(=O)O)C(=O)N[C@@H](CCC(=O)O)C(=O)N[C@@H](CO)C(=O)N[C@@H](Cc1ccc(O)cc1)C(=O)N[C@H](C(=O)N[C@@H](CC(=O)O)C(=O)N[C@@H](CC(C)C)C(=O)N[C@@H](CCCCN)C(=O)N[C@@H](CCC(=O)O)C(=O)N[C@@H](CC(C)C)C(=O)NCC(=O)N[C@H](C(=O)N[C@@H](Cc1ccc(O)cc1)C(=O)N[C@@H](CCC(=O)O)C(=O)N[C@@H](Cc1ccc(O)cc1)C(=O)NCC(=O)N[C@@H](CO)C(=O)NCC(=O)N[C@@H](CSCC(=O)O[C@H]1CC[C@@]2(C)C(=CC[C@H]3[C@@H]4CC[C@H]([C@H](C)CCCC(C)C)[C@@]4(C)CC[C@@H]32)C1)C(N)=O)[C@@H](C)O)[C@@H](C)CC` is reported as 0.035 µM (HCoV-NL63; viral entry; pseudotyped virus).
The MIC of `COc1ccc2nc(C)cc(OCC(=O)Nc3cc(C)cc(C)c3)c2c1` is reported as 32 µM (≈ 11.2 µg/mL) (Haemophilus influenzae; broth microdilution; H128 AcrA-).
`CC(=N)NC12C3CCC4C3C3C(CCC31)C42` has an EC50 of > 100 µM (Influenza A virus; viral replication; MDCK, H3N2 A/HK/7/87).
`Cc1cccc(-c2nc(Nc3ccncn3)c3sccc3n2)n1` has an MIC of 0.5 µM (≈ 0.16 µg/mL) (Haemophilus influenzae; broth microdilution; H128 AcrA-).
The EC50 of `CCN(CC)C12C3CCC4C3C3C(CCC31)C42` is reported as 8.7 ± 3.3 µM (Influenza A virus; viral replication; MDCK, A/Ned/378/05 (H1N1)).
`COc1ccc2nc(C)cc(OCC(=O)Nc3ccccc3OC)c2c1` has an MIC of 32 µM (≈ 11.3 µg/mL) (Haemophilus influenzae; broth microdilution; H128 AcrA-).
The MIC of `CC[C@H](C)[C@H](NC(=O)[C@H](C)NC(=O)[C@@H]1CCCN1C(=O)[C@H](CC(C)C)NC(=O)[C@H](Cc1ccccc1)NC(=O)[C@H](CCCCN)NC(=O)[C@H](CCSC)NC(=O)[C@H](C)NC(=O)[C@H](CCSC)NC(=O)[C@H](CCCCN)NC(=O)[C@H](C)NC(=O)[C@@H](NC(=O)[C@@H](NC(=O)CNC(=O)[C@H](Cc1ccccc1)NC(=O)[C@@H](N)Cc1ccccc1)C(C)C)[C@@H](C)CC)C(=O)N[C@@H](Cc1ccccc1)C(=O)N[C@@H](CCCCN)C(=O)N[C@@H](CCC(N)=O)C(=O)N[C@H](C(=O)N[C@@H](CCC(N)=O)C(=O)N[C@@H](CCCCN)C(=O)N[C@@H](CCCCN)C(=O)N[C@@H](CCCNC(=N)N)C(=O)N[C@@H](CCCCN)C(N)=O)[C@@H](C)CC` is reported as > 50 µM (Aspergillus flavus; ATP luminescence; ATCC 9170; 48 h, 37 °C).
With `C1CC2C3C4C5CCC4C24CNCC54C13` the EC50 was > 100 µM (Influenza A virus; viral replication, inhibitor; H3N2).
`CC[C@H](C)[C@H](NC(=O)CNC(=O)[C@@H](NC(=O)[C@@H](N)Cc1ccccc1)[C@@H](C)CC)C(=O)N[C@@H](CCSC)C(=O)N[C@@H](C)C(=O)N[C@H](C(=O)N[C@@H](CC(C)C)C(=O)N[C@@H](C)C(=O)N[C@@H](CO)C(=O)N[C@@H](CC(C)C)C(=O)N[C@H](C(=O)N[C@H](C(=O)N1CCC[C@H]1C(=O)N[C@@H](CCCCN)C(=O)N[C@@H](CC(C)C)C(=O)N[C@H](C(=O)N[C@@H](CCC(=O)O)C(=O)N[C@@H](CCCCN)C(=O)N[C@H](C(=O)N[C@@H](CCCCN)C(=O)N[C@@H](CCC(N)=O)C(=O)N[C@@H](C)C(=O)N[C@@H](CCCNC(=N)N)C(N)=O)[C@@H](C)CC)[C@@H](C)CC)[C@@H](C)CC)C(C)C)[C@@H](C)O` has an MIC of > 50 µM (Aspergillus flavus; ATP luminescence; ATCC 9170; 48 h, 37 °C).
The EC50 of `NC12C3CCC4C3C3C(CCC31)C42` is reported as 10 µM (Influenza A virus; viral replication; MDCK, H1N1 A/PR/8/34).
`CCCCCC(=O)NCC(=O)N[C@@H](CC(C)C)C(=O)N[C@@H](CC(C)C)C(=O)N[C@@H](CCCCN)C(=O)N[C@@H](CCCNC(=N)N)C(=O)N[C@H](C(=O)N[C@@H](CCCCN)C(=O)N[C@H](C(=O)N[C@@H](CC(C)C)C(=O)N[C@@H](CC(C)C)C(=O)NCCCC[C@H](NC(=O)[C@H](CC(C)C)NC(=O)[C@H](CC(C)C)NC(=O)[C@@H](NC(=O)[C@H](CCCCN)NC(=O)[C@@H](NC(=O)[C@H](CCCNC(=N)N)NC(=O)[C@H](CCCCN)NC(=O)[C@H](CC(C)C)NC(=O)[C@H](CC(C)C)NC(=O)CNC(=O)CCCCC)[C@@H](C)CC)[C@@H](C)O)C(N)=O)[C@@H](C)O)[C@@H](C)CC` gave an FIC index of 0.25 (Klebsiella pneumoniae; checkerboard; ATCC 700603; together with: rifampicin).
The MIC of `COc1ccc(CCNc2cc(-c3ccccc3)nc3ncnn23)cc1` is reported as 64 µM (≈ 22.1 µg/mL) (Haemophilus influenzae; microbial growth, broth dilution; H128).
`CCCCCCCCCC(=O)NCC(=O)N[C@@H](CC(C)C)C(=O)N[C@@H](CC(C)C)C(=O)N[C@@H](CCCCN)C(=O)N[C@@H](CCCNC(=N)N)C(=O)N[C@H](C(=O)N[C@@H](CCCCN)C(=O)N[C@H](C(=O)N[C@@H](CC(C)C)C(=O)N[C@@H](CC(C)C)C(N)=O)[C@@H](C)O)[C@@H](C)CC` has an FIC index of 0.312 (Klebsiella pneumoniae; checkerboard; ATCC 700603; together with: polymyxin B).
`c1ccc(CNCC23C4CCC5C4C4C(CCC42)C53)cc1` gave an EC50 of > 100 µM (Influenza A virus; viral replication; MDCK, H3N2 A/HK/7/87).
With `CC[C@H](C)[C@H](NC(=O)[C@H](CCCNC(=N)N)NC(=O)[C@H](CCCCN)NC(=O)[C@H](CC(C)C)NC(=O)[C@H](CC(C)C)NC(=O)CN)C(=O)N[C@@H](CCCCN)C(=O)N[C@H](C(=O)N[C@@H](CC(C)C)C(=O)N[C@@H](CC(C)C)C(=O)NCCCC[C@H](NC(=O)[C@H](CC(C)C)NC(=O)[C@H](CC(C)C)NC(=O)[C@@H](NC(=O)[C@H](CCCCN)NC(=O)[C@@H](NC(=O)[C@H](CCCNC(=N)N)NC(=O)[C@H](CCCCN)NC(=O)[C@H](CC(C)C)NC(=O)[C@H](CC(C)C)NC(=O)CN)[C@@H](C)CC)[C@@H](C)O)C(N)=O)[C@@H](C)O` the FIC index was 0.625 (Klebsiella pneumoniae; checkerboard; ATCC 700603; together with: gentamicin).
The viability of `C=CC(=O)Nc1cccc2c1cc(C)n2-c1nc2c(c(NCc3ccccc3)n1)CCCC2` is reported as 0% (Influenza A virus; MDCK, A/WS/33 (H1N1); 0.5 µM, 24 (unit not given), infected cells).
The FIC index of `CCCC(=O)NCC(=O)N[C@@H](CC(C)C)C(=O)N[C@@H](CC(C)C)C(=O)N[C@@H](CCCCN)C(=O)N[C@@H](CCCNC(=N)N)C(=O)N[C@H](C(=O)N[C@@H](CCCCN)C(=O)N[C@H](C(=O)N[C@@H](CC(C)C)C(=O)N[C@@H](CC(C)C)C(=O)NCCCC[C@H](NC(=O)[C@H](CCCCNC(=O)[C@H](CC(C)C)NC(=O)[C@H](CC(C)C)NC(=O)[C@@H](NC(=O)[C@H](CCCCN)NC(=O)[C@@H](NC(=O)[C@H](CCCNC(=N)N)NC(=O)[C@H](CCCCN)NC(=O)[C@H](CC(C)C)NC(=O)[C@H](CC(C)C)NC(=O)CNC(=O)CCC)[C@@H](C)CC)[C@@H](C)O)NC(=O)[C@H](CC(C)C)NC(=O)[C@H](CC(C)C)NC(=O)[C@@H](NC(=O)[C@H](CCCCN)NC(=O)[C@@H](NC(=O)[C@H](CCCNC(=N)N)NC(=O)[C@H](CCCCN)NC(=O)[C@H](CC(C)C)NC(=O)[C@H](CC(C)C)NC(=O)CNC(=O)CCC)[C@@H](C)CC)[C@@H](C)O)C(N)=O)[C@@H](C)O)[C@@H](C)CC` is reported as 0.375 (Klebsiella pneumoniae; checkerboard; ATCC 700603; together with: rifampicin).
`CN1CC23C4C=CC5C4C4C2C=CC4C53C1` gave an EC50 of > 100 µM (Influenza A virus; viral replication; A/Ishikawa/7/82 (H3N2)).
`CCCCCCCC(=O)NCC(=O)N[C@@H](CC(C)C)C(=O)N[C@@H](CC(C)C)C(=O)N[C@@H](CCCCN)C(=O)N[C@@H](CCCNC(=N)N)C(=O)N[C@H](C(=O)N[C@@H](CCCCN)C(=O)N[C@H](C(=O)N[C@@H](CC(C)C)C(=O)N[C@@H](CC(C)C)C(N)=O)[C@@H](C)O)[C@@H](C)CC` gave an FIC index of 0.25 (Klebsiella pneumoniae; checkerboard; ATCC 700603; together with: polymyxin B).
`CC(C)C1=C[C@@]23CC[C@@H]4[C@](C)(CCC[C@@]4(C)C(=O)OCC#CCN4CCOCC4)[C@H]2C[C@@H]1[C@H]1C(=O)OC(=O)[C@H]13` has an IC50 of 6.47 µM (Influenza A virus; viral replication; MDCK, A/Puerto Rico/8/34 (H1N1)).

Repeated from above:
With `CC[C@H](C)[C@H](NC(=O)[C@H](CCCNC(=N)N)NC(=O)[C@H](CCCCN)NC(=O)[C@H](CC(C)C)NC(=O)[C@H](CC(C)C)NC(=O)CN)C(=O)N[C@@H](CCCCN)C(=O)N[C@H](C(=O)N[C@@H](CC(C)C)C(=O)N[C@@H](CC(C)C)C(=O)NCCCC[C@H](NC(=O)[C@H](CC(C)C)NC(=O)[C@H](CC(C)C)NC(=O)[C@@H](NC(=O)[C@H](CCCCN)NC(=O)[C@@H](NC(=O)[C@H](CCCNC(=N)N)NC(=O)[C@H](CCCCN)NC(=O)[C@H](CC(C)C)NC(=O)[C@H](CC(C)C)NC(=O)CN)[C@@H](C)CC)[C@@H](C)O)C(N)=O)[C@@H](C)O` the FIC index was 0.625 (Klebsiella pneumoniae; checkerboard; ATCC 700603; together with: gentamicin).
`CC(C)C1=C[C@@]23CC[C@@H]4[C@](C)(CCC[C@@]4(C)C(=O)OCC#CCN4CCOCC4)[C@H]2C[C@@H]1[C@H]1C(=O)OC(=O)[C@H]13` has an IC50 of 6.47 µM (Influenza A virus; viral replication; MDCK, A/Puerto Rico/8/34 (H1N1)).
The viability of `C=CC(=O)Nc1cccc2c1cc(C)n2-c1nc2c(c(NCc3ccccc3)n1)CCCC2` is reported as 0% (Influenza A virus; MDCK, A/WS/33 (H1N1); 0.5 µM, 24 (unit not given), infected cells).
The MIC of `COc1ccc(CCNc2cc(-c3ccccc3)nc3ncnn23)cc1` is reported as 64 µM (≈ 22.1 µg/mL) (Haemophilus influenzae; microbial growth, broth dilution; H128).
